Assay results from different studies.
Lines come from different studies, so protocols differ. “And” joins repeats or separate records; there may be more than shown. Numbers after ± are the reported error. ≈ marks a conversion by molar mass, not a printed value.
UniProt P09619, sequence (whole entry, looked up): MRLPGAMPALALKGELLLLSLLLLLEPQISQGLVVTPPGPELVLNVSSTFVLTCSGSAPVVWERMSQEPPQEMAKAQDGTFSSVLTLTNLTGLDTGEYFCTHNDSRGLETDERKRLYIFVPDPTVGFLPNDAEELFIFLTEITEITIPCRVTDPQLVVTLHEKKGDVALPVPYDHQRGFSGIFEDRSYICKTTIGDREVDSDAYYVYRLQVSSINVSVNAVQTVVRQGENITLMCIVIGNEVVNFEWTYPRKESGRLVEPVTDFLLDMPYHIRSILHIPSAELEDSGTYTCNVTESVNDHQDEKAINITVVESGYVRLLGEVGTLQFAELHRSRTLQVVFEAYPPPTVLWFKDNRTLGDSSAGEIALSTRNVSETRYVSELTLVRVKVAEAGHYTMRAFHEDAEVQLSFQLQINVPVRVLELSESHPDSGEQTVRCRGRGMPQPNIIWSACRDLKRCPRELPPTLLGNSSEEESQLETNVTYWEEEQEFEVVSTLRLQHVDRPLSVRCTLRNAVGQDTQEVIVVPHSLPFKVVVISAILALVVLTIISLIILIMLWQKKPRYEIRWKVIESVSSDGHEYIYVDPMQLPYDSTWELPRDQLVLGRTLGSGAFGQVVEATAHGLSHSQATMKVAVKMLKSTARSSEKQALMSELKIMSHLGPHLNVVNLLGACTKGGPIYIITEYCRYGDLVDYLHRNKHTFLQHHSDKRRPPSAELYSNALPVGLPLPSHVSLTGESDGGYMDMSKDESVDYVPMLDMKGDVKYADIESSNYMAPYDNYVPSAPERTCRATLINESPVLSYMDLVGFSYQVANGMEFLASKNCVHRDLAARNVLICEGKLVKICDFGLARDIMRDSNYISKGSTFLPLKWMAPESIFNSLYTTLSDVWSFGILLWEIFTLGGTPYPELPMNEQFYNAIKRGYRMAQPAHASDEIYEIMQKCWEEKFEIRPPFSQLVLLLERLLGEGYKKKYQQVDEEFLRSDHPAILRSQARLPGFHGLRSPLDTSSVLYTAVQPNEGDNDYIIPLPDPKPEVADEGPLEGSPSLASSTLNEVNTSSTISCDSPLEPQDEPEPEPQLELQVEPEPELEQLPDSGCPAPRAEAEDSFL
UniProt P49761, sequence (whole entry, looked up): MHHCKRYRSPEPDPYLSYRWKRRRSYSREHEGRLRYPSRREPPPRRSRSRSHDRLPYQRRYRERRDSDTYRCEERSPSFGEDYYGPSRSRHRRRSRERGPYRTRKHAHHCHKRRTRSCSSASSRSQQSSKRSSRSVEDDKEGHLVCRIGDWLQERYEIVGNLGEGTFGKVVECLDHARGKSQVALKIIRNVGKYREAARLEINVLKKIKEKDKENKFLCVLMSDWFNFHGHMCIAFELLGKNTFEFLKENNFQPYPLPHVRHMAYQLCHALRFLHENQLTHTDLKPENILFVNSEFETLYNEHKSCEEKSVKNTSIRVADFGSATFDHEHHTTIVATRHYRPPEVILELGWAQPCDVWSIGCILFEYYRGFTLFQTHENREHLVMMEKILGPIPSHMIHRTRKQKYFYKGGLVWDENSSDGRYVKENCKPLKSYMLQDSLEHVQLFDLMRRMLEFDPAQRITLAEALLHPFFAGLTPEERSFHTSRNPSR
UniProt P34947, sequence (whole entry, looked up): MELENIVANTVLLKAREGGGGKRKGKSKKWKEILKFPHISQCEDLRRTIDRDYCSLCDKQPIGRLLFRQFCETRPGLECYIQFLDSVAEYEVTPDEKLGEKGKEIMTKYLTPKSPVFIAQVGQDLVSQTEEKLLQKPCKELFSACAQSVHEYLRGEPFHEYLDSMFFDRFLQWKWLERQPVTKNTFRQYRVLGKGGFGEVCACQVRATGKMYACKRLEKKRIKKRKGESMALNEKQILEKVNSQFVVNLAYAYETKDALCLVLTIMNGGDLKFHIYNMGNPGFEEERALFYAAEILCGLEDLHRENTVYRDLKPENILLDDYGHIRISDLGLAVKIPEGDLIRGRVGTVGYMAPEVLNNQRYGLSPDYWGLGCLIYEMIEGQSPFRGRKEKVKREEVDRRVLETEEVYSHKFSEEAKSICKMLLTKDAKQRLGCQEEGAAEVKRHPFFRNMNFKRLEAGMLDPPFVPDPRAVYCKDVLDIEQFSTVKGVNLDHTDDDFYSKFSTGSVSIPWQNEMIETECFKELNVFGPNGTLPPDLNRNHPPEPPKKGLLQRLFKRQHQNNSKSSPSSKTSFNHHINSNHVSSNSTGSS
UniProt Q7M759, sequence (whole entry, looked up): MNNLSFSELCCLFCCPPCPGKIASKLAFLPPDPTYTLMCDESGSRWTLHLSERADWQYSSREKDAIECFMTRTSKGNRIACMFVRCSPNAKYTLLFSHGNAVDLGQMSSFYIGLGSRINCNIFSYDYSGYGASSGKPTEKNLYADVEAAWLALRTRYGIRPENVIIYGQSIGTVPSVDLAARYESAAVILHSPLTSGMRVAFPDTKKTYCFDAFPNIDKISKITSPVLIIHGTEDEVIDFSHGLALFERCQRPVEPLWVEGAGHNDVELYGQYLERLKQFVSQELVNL

| SMILES | tested on | assay | test system | conditions | scale | quantity | result |
| --- | --- | --- | --- | --- | --- | --- | --- |
| Cc1cc(Oc2nc(N3CC[C@@H](c4ccncc4)C3)ncc2F)[nH]n1 | Ovarian cancer cell lines | cell proliferation | – | – | – | IC50 | 42.7 µM |
| CN1C(=O)C(C2C3=C(CC(C)(C)CC3=O)Oc3ccc([N+](=O)[O-])cc32)C(=O)N(C)C1=O (stereo not shown) | 3T3-L1 | cell growth or viability, MTT | – | 72 h | – | IC20 | 118 µg/mL (≈ 275 µM) |
| Cc1ccc(C2=CC(C)(C)Oc3ccc(-c4ccc(-c5ccc(C(=O)O)cc5)[nH]4)cc32)cc1 | – | – | CD-1 mouse, male, testis | 20 mg/kg/day, 2 weeks, one day after dosing end | – | tubules with failed spermatid translocation | 29.3% and 7.5% |
| CCN(CC)C(=O)[C@@H]1C=C2c3cccc4c3c(cn4C(=O)c3ccco3)C[C@H]2N(C)C1 | – | magnetometer | C57BL/6J mouse, male | intraperitoneal, 0.125 mg/kg, 30 min session | – | head-twitch response count | 14.8 |
| O=C(C[Se]C(=O)c1ccco1)Nc1cccc(C(F)(F)F)c1 | NCI60 non-small-cell lung subpanel | cell growth | – | 10 µM, 48 h, one-dose | – | mean growth percent | -22.1% |
| CC(C)[C@H]1NC(=O)C[C@H]2/C=C/CCSSC[C@@H](NC1=O)C(=O)N[C@H](Cc1cccc3ccccc13)C(=O)NCC(=O)O2 | Dual specificity mitogen-activated protein kinase kinase 2 (MAP2K2, Homo sapiens, UniProt P36507) | – | – | 10 µM | – | inhibition | -0.277% |
| CC(C)CC(C(=O)N1CC2(CC1C#N)C(=O)Nc1ccccc12)N(C)C(=O)c1cc2c(F)cc(F)c(F)c2[nH]1 (stereo not shown) | human coronavirus 229E | viral replication | – | 0.1 µM | – | inhibition | 100% |
| COc1ccccc1-c1ccncc1C(=O)Nc1nnc(OCc2ccc(Cl)cc2)s1 | HCT116 BRCA2-/- | – | – | 4 µM, average of 3 runs | baseline: untreated | colony survival | 35.6% |
| O=C1NC2(CC2)COc2ncc(F)cc2[C@H]2COCCN2c2ccn3ncc1c3n2 | – | – | Sprague-Dawley rat, male, blood | oral, 5 mg/kg/day, end of recovery, 4-week repeated-dose toxicity | baseline: red blood cells | reticulocytes | 2.57 ± 0.55% |
| CC(C)CC(O)(CC(C)C)c1cn(C(=O)N2CCCC2)nn1 | Alpha/beta hydrolase domain-containing protein 17B (Abhd17b, Mus musculus, UniProt Q7M759) | probe labelling, inhibitor, measured: Fam108b1 | mouse, brain | i.p., 0.8 mg/kg, 4 h, protein level | baseline: treated over vehicle mice, lower = stronger inhibition | activity ratio-of-ratios | 1.75 |
| CC(C)(C)C(=O)OCOP(=O)(OCOC(=O)C(C)(C)C)C1CCCN(O)C1=O (stereo not shown) | SNB-19 | – | – | – | – | TGI | 28.7 µM |
| Nc1ncc(-c2cc(-c3cnn(CC(F)(F)F)c3)ncc2F)nc1C(=O)NC1CNCC(F)C1 (stereo not shown) | KIT V559D V654A | KINOMEscan | – | 1 µM | – | remaining binding | 35% |
| CC[C@H](C)[C@@H]1NC(=O)CNC(=O)[C@@H]2Cc3c([nH]c4ccccc34)SC[C@H](NC(=O)CNC1=O)C(=O)N[C@@H](CC(=O)NCc1cn(CCNC(=O)OCCSSCCC(=O)NCc3cn(CC(=O)N[C@H](Cc4ccccc4)C(=O)N[C@H]4CSSC[C@@H](C(=O)N[C@H](C(=O)O)[C@@H](C)O)NC(=O)[C@H]([C@@H](C)O)NC(=O)[C@H](CCCCN)NC(=O)[C@@H](Cc5c[nH]c6ccccc56)NC(=O)[C@H](Cc5ccc(O)cc5)NC4=O)nn3)nn1)C(=O)N1C[C@H](O)C[C@H]1C(=O)N[C@@H]([C@@H](C)[C@@H](O)CO)C(=O)N2 | AR-42J | receptor binding, blocking agent, fluorescence microscopy | – | 250 nM, 30 min, 37 °C, added: TATE-SS-rhodamine 5 nM | baseline: tracer alone | remaining fluorescence | 5% |
| Cc1cc(C(=O)Nc2nc3cccc(C)c3n2[C@H]2CCCCN(C(=O)/C=C/CN(C)C)C2)ccn1 | Trypanosoma brucei | propidium iodide flow cytometry | bloodstream form | concentration not given, 24 h | – | multinucleated cells | 11.7% |
| CC[C@H](C)[C@H](NC(=O)[C@H](CCCNC(=N)N)NC(=O)[C@H](CO)NC(=O)[C@H](Cc1ccc(O)cc1)NC(=O)[C@@H](NC(=O)[C@@H](NC(=O)[C@H](C)NC(=O)CNC(=O)[C@H](CCCCN)NC(=O)[C@H](CCCCN)NC(=O)CCNC(=O)CCCCCNC(=O)[C@H](CCCNC(=N)N)NC(=O)CCCCCNC(=O)[C@H](CCCNC(=N)N)NC(=O)[C@H](CCCNC(=N)N)NC(=O)CCCCCNC(=O)[C@H](CCCNC(=N)N)NC(=O)[C@H](CCCNC(=N)N)NC(=O)CCCCCNC(=O)[C@H](CCCNC(=N)N)NC(=O)[C@H](CCCNC(=N)N)NC(=O)CCCCCNC(=O)[C@@H](N)CCCNC(=N)N)C(C)C)[C@@H](C)O)C(=O)N[C@@H](CO)C(=O)NCC(=O)N[C@@H](CCC(N)=O)C(=O)N[C@@H](Cc1ccc(O)cc1)C(=O)N[C@@H](CCCCN)C(=O)O | – | broth microdilution | ATCC 33591 resistant strain, Mueller-Hinton broth | – | – | MIC | 24 µM |
| O=C(O)c1ccc(-c2nc(-c3ccccc3Cl)c3sccn23)cc1 | – | – | C57BL/6 mice, 5-fluorouracil treated | dose not given, day 3 | – | reticulated platelets | 1.49% and 1.35% and 1.28% and 1.46% |
| O=C1NC(=O)c2c1c1cc(F)c[n+]3c1c1c2c2cc(O)ccc2[n]1[Ru-4]312([N]=C=S)[S+]3CC[S+]1CC[S+]2CC3 (stereo not shown) | Platelet-derived growth factor receptor beta (PDGFRB, Homo sapiens, UniProt P09619) | enzyme activity | – | 100 nM, human enzyme, added: 10 µM ATP | baseline: untreated | remaining activity | 111% |
| CCCCCC1=C(NCC)C(=O)C(C/C=C(\C)CCC=C(C)C)=C(O)C1=O | – | RNA-seq GSEA, measured: HALLMARK_INTERFERON_GAMMA_RESPONSE | mouse, A53T α-synuclein lesioned, striatum | dose not given | baseline: untreated A53T lesioned mice, direction not given | normalised enrichment score | 2.99 |
| CC[C@H](C)[C@@H]([C@@H](CC(=O)N1CCC[C@H]1[C@H](OC)[C@@H](C)C(=O)N[C@H](C)[C@@H](O)c1ccccc1)OC)N(C)C(=O)[C@@H](NC(=O)[C@H](C(C)C)N(C)C(=O)OCc1ccc(NC(=O)[C@H](CCCNC(N)=O)NC(=O)[C@@H](NC(=O)CCCCCN2C(=O)CC(SC[C@H](NC(=O)[C@H](CC(=O)O)NC(=O)[C@H](Cc3ccc(O)cc3)NC(=O)[C@H](Cc3c[nH]c4ccccc34)NC(=O)[C@@H](N)CCCNC(=N)N)C(=O)O)C2=O)C(C)C)cc1)C(C)C (stereo partly shown) | – | – | C57BL/6 mouse, healthy, liver | intraperitoneal, 2.5 mg/kg, 6 h | – | concentration | not detected |
| CC[C@H](C)[C@H](NC(=O)[C@H](CO)NC(=O)[C@H](Cc1ccc(O)cc1)NC(=O)[C@H](Cc1ccc(O)cc1)NC(=O)[C@H](CC(N)=O)NC(=O)CNC(=O)[C@H](CO)NC(=O)[C@H](Cc1ccc(O)cc1)NC(=O)[C@H](CO)NC(=O)[C@H](CO)NC(=O)[C@H](CC(N)=O)NC(=O)COCCOCCNC(=O)CN1CCN(CC(=O)O)CCN(CC(=O)O)CCN(CC(=O)O)CC1)C(=O)N[C@@H](CC(C)C)C(N)=O [copper-64 labelled] | – | dynamic PET | tamoxifen-induced PDAC mouse model, pancreas | 0.4 min, CLDN4-expressing tumours | – | maximum pancreas uptake | 20 %IA/cc |
| COc1ccccc1-c1n[nH]c2nc(NC3CCN(C(=O)Cc4ccc(F)cc4F)CC3)ncc12 | – | bead binding, competition bead pull-down, measured: LINJ.35.3130 | Leishmania donovani axenic amastigote extract | 10 µM | baseline: vehicle | relative abundance | 1.02 |
| COc1c(NC(=O)c2ccc(NC(=O)c3ccc(NC(=O)[C@H](CC#N)NC(=O)c4ccc(NC(=O)/C(C)=C/c5ccc(O)cc5)cc4)cc3)c(OC)c2O)ccc(C(=O)O)c1O | Salmonella enterica serovar Kentucky | broth microdilution | ciprofloxacin-sensitive | – | – | MIC | 0.125 µg/mL |
| CS(C)(=O)=Nc1ccc(-c2ccc(-c3nc4cc(O[C@@H]5CO[C@H]6[C@@H]5OC[C@H]6O)[nH]c4cc3F)cc2)cc1 | G protein-coupled receptor kinase 5 (GRK5, Homo sapiens, UniProt P34947) | enzyme activity, inhibitor | – | 10 µM | – | inhibition | -11% |
| CN(C)[C@H]1C[C@@]23CC[C@@]4(O2)C(=CC[C@]2(C)[C@@H](c5ccc6ccncc6c5)CC[C@H]24)C=C3[C@@H](O)[C@@H]1O | Dual specificity protein kinase CLK3 (CLK3, Homo sapiens, UniProt P49761) | ATP probe labelling, inhibitor, KiNativ profiling | – | 0.1 µM | – | inhibition | -6.5% |
| N=C(N)NCCC[C@@H]1NC(=O)[C@H](CCCCNC(=O)CCC(NC(=S)Nc2ccc(CC3CN(CC(=O)O)CCN(CC(=O)O)CCN(CC(=O)O)CCN3CC(=O)O)cc2)C(=O)NCCCC[C@@H]2NC(=O)[C@@H](Cc3ccc(O)cc3)NC(=O)[C@H](CC(=O)O)NC(=O)CNC(=O)[C@H](CCCNC(=N)N)NC2=O)NC(=O)[C@@H](Cc2ccc(O)cc2)NC(=O)[C@H](CC(=O)O)NC(=O)CNC1=O (stereo partly shown) [scandium-44 labelled] | – | ex vivo γ-counting | female athymic nude mice, U-87 MG xenograft, skin | intravenous, 4 h, added: cRGD 50 mg/kg blocking | – | tissue uptake | 0.117 ± 0.025 %ID/g |
| COc1ccccc1-c1n[nH]c2nc(N[C@H]3CC[C@H](NS(=O)(=O)CC(C)C)CC3)ncc12 | – | bead binding, competition bead pull-down, measured: LINJ.30.1440 | Leishmania donovani extract | 10 µM | baseline: vehicle | relative abundance | 0.92 |
| CCN(CC)C(=O)[C@@H]1C=C2c3cccc4c3c(cn4C(=O)c3cccs3)C[C@H]2N(C)C1 | – | magnetometer | C57BL/6J mouse, male | intraperitoneal, 3 mg/kg, 30 min session | – | head-twitch response count | 48.4 |
| CC[C@H]1OC(=O)[C@H](C)[C@@H](OC(=O)Cc2ccccc2)[C@H](C)[C@@H](O[C@@H]2O[C@H](C)C[C@H](N(C)C)[C@H]2O)[C@](C)(OC)C[C@@H](C)C(=O)[C@H](C)[C@@H](O)[C@]1(C)O | Escherichia coli ribosome | in vitro transcription-translation, inhibitor | – | – | – | IC50 | 0.83 µM |

Some of these lines once more:
| SMILES | tested on | assay | test system | conditions | scale | quantity | result |
| --- | --- | --- | --- | --- | --- | --- | --- |
| CC(C)[C@H]1NC(=O)C[C@H]2/C=C/CCSSC[C@@H](NC1=O)C(=O)N[C@H](Cc1cccc3ccccc13)C(=O)NCC(=O)O2 | Dual specificity mitogen-activated protein kinase kinase 2 (MAP2K2, Homo sapiens, UniProt P36507) | – | – | 10 µM | – | inhibition | -0.277% |
| CN(C)[C@H]1C[C@@]23CC[C@@]4(O2)C(=CC[C@]2(C)[C@@H](c5ccc6ccncc6c5)CC[C@H]24)C=C3[C@@H](O)[C@@H]1O | Dual specificity protein kinase CLK3 (CLK3, Homo sapiens, UniProt P49761) | ATP probe labelling, inhibitor, KiNativ profiling | – | 0.1 µM | – | inhibition | -6.5% |
| CS(C)(=O)=Nc1ccc(-c2ccc(-c3nc4cc(O[C@@H]5CO[C@H]6[C@@H]5OC[C@H]6O)[nH]c4cc3F)cc2)cc1 | G protein-coupled receptor kinase 5 (GRK5, Homo sapiens, UniProt P34947) | enzyme activity, inhibitor | – | 10 µM | – | inhibition | -11% |
| O=C1NC(=O)c2c1c1cc(F)c[n+]3c1c1c2c2cc(O)ccc2[n]1[Ru-4]312([N]=C=S)[S+]3CC[S+]1CC[S+]2CC3 (stereo not shown) | Platelet-derived growth factor receptor beta (PDGFRB, Homo sapiens, UniProt P09619) | enzyme activity | – | 100 nM, human enzyme, added: 10 µM ATP | baseline: untreated | remaining activity | 111% |
